Published values of several laboratories.
Each numbered part is a random draw from the data of one study; scales do not carry over between parts.

Study 1
Target: Sal-like protein 4, full length isoform B (SALL4, Homo sapiens, UniProt Q9UJQ4-2, residues 1-616)
Method: universal PBM
Molecule type: double-stranded DNA, one strand shown
Medium: in vitro
Concentration: not given
Notes: 8-mer, flanks averaged, mean of replicates
Direction: higher = stronger binding
Residues (chain): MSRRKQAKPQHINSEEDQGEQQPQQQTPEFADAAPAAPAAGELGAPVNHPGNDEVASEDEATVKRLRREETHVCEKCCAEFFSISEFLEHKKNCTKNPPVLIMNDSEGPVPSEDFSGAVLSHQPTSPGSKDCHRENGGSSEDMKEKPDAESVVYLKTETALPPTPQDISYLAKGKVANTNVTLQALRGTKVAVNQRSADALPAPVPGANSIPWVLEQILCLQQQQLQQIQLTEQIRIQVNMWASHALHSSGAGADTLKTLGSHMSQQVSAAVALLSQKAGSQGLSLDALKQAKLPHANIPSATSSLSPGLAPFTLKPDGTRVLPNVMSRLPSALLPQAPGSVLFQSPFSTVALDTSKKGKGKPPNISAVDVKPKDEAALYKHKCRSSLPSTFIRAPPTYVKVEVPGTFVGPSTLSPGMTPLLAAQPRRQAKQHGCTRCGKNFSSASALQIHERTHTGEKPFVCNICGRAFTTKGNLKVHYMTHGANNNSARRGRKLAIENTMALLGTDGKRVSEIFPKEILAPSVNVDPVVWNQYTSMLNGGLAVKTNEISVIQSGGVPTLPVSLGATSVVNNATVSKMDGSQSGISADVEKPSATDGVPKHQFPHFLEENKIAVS
| Strand | E-score |
| --- | --- |
| TAAGGCCA | -0.087 |
| AAGTTTCA | 0.215 |
| ATCCTACC | -0.116 |
| ATTTTCGC | 0.122 |
| ACCTAGTC | -0.0687 |

Study 2
Target: Centromere-binding protein 1, full length, N-terminal tag (CBF1, Saccharomyces cerevisiae, UniProt P17106, residues 1-351)
Sequence of UniProt P17106 (whole entry, looked up): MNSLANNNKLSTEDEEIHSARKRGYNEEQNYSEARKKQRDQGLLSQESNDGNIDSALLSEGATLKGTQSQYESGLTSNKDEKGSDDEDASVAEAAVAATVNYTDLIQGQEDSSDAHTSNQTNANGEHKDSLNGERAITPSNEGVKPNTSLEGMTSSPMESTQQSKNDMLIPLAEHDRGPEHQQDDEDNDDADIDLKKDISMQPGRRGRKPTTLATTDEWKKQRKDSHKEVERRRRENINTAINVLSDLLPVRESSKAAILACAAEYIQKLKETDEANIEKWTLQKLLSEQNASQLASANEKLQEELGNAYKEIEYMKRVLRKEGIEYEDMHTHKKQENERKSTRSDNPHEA
Method: protein-binding microarray
Molecule type: double-stranded DNA, one strand shown
Medium: in vitro
Concentration: 0.8 µM
Notes: whole 60-bp probe, no competitor
Direction: higher = stronger binding
Constant ends, left off below: … GTCTTGATTCGCTTGACGCTGCTG
| Strand | fluorescence intensity |
| --- | --- |
| GAATTAAATGAATCAGCTGAGACTTCCAGGGATTAG | 667 a.u. |
| GAAAGCGGTGAGCGTCACCCTAAAGAACACCGATAG | 491 a.u. |
| CTATATACTGTTAAACATGTGAACTTTTCTGTATTC | 712 a.u. |
| TGTACGAAGCTATAACAGCTGATTATAGTAGTTAGG | 582 a.u. |
| GAAAATTTTCGACATCATGCCTTCCGAATAAATTAG | 613 a.u. |

Study 3
Target: Histone acetyltransferase KAT6A, winged helix 1, GST fusion (KAT6A, Homo sapiens, UniProt Q92794, residues 1-85)
Method: protein binding microarray
Molecule type: double-stranded DNA, one strand shown
Medium: in vitro
Concentration: not given
Notes: 8-mer, flanks averaged, mean of 2 arrays, mostly near background
Reference: not given
Direction: higher = stronger binding
Target sequence (chain): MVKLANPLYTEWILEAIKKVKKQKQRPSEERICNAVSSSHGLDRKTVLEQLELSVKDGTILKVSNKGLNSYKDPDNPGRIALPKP
| Strand | E-score |
| --- | --- |
| CCTGTGCC | -0.0522 |
| ATCAATAG | -0.202 |
| GTCCCCTA | -0.0944 |
| CTTGAGTC | -0.238 |
| ACGTGGAA | -0.0683 |
| ATGCTCTG | -0.183 |

Other studies, line by line
| Substance | target | test | test system | conditions | scale | endpoint | value |
| --- | --- | --- | --- | --- | --- | --- | --- |
| PhoQ, residues 284 288 289 292 302 303 SLGVVW | PhoP, residues 12 14 15 18 19 NQAHL (Escherichia coli, UniProt P23836) | Sort-seq, refers to: YFP reporter | E. coli | PhoQ-PhoP variant library, added: 10 µM Mg2+ | reference: high Mg2+ state, higher = stronger signaling | fold induction | 13.9 |

Some of these lines once more (study 3):
| Strand | E-score |
| --- | --- |
| ATCAATAG | -0.202 |
